Experimental data gathered from unrelated publications.
Compare with care: the assays were run in different laboratories. ± gives the spread as reported.

SMILES | target or system | assay | test system | setting | scale | endpoint | value
Nc1ncnc2c1ncn2[C@@H]1O[C@@H]2COP(=O)(O)O[C@H]3[C@@H](O)[C@H](n4cnc5c(=O)[nH]cnc54)O[C@@H]3COP(=O)(O)O[C@H]2[C@H]1O | HFF-1 | RNA sequencing Reactome analysis, item: Reactome R-HSA-9701192 defective HRR (BRCA1 loss) |  | added: West Nile virus infection | reference: West Nile virus infected cells, upregulated pathway | pathway fold enrichment | 7.67
CN(C)CCCN1c2ccccc2CCc2ccccc21 | Plasmodium falciparum |  | 3D7 |  |  | IC50 | 12.6 µM
COc1cc(CCC[P+](c2ccccc2)(c2ccccc2)c2ccccc2)c(OC)c2c1OCO2.[I-] | SK-OV-3 | SRB |  |  |  | GI50 | -5.7 log M
Nc1ncc(-c2nc(N3CCOCC3)nc(N3CCOCC3)n2)c(C(F)F)n1 | MG-63 |  |  | 72 h |  | GI50 | 0.109 µM
CC(C)N1CCC(NC2CCN(c3cccc(-c4cc5cc(F)ccc5[nH]4)c3)CC2)CC1 | SR |  |  |  |  | GI50 | 0.272 µM
COc1c(CCC[P+](c2ccccc2)(c2ccccc2)c2ccccc2)cc2c(c1OC)OCO2.[I-] | SNB-75 | SRB |  |  |  | GI50 | -5.89 log M
CN1CCN(C2(CNC3CCN(c4cccc(-c5cc6cc(F)ccc6[nH]5)c4)CC3)CCC2)CC1 | SNB-75 |  |  |  |  | CC50 | 5.79 µM
CC(C)(CO)Cc1cc(C(C)(C)C)c(O)c(C(C)(C)C)c1 | Plasmodium falciparum |  | 3D7 |  |  | IC50 | 3.98 µM
Oc1cc(Cl)ccc1Oc1ccc(Cl)cc1Cl | HepG2 | nuclear translocation, item: NF-κB |  | 24 h |  | representative mode point of departure | 17 µM
C/C=C(/C)C(=O)O[C@H]1C(C)=C2[C@H]([C@@H]1OC(=O)CCCCCCC)[C@@](C)(OC(C)=O)C[C@H](OC(=O)CCC)[C@@]1(O)[C@H]2OC(=O)[C@@]1(C)O | HEK-293T | RNA-seq GSEA, item: Hallmark androgen response |  | 500 nM, 6 h | direction not given | normalized enrichment score | 1.86
COc1c(C)c2c(c(O)c1C/C=C(\C)CCC(=O)O)C(=O)OC2 | pancreas cancer cell lines | cell proliferation |  | average over lines |  | IC50 | 1.51 µM
O=S(=O)(c1ccc(O)cc1)c1ccc(O)cc1 | HepG2 spheroids | Hoechst flow cytometry |  | 0.01 µM, 96 h |  | G1 phase cells | 70.8 ± 0.86%
COc1ccc2c(c1)[nH]c1c(C)nccc12 | DU-145 | bisulfite pyrosequencing, item: RASSF1A promoter CpG site 9 |  | concentration not given | reference: vehicle | methylation reduction | 2.84%

Some of these lines once more:
SMILES | target or system | assay | test system | setting | scale | endpoint | value
COc1ccc2c(c1)[nH]c1c(C)nccc12 | DU-145 | bisulfite pyrosequencing, item: RASSF1A promoter CpG site 9 |  | concentration not given | reference: vehicle | methylation reduction | 2.84%
